Measurements gathered from unrelated publications.
Parts stem from different laboratories: compare values within a part only. Changes are numbered by the printed parent chain.

Series 1 — target: CREB5, bZIP domain (human); method: DHFR protein complementation; sample: yeast; relative to: wild-type JUN-FOS pair; reading: higher = stronger binding
Setting: single substitutions, most at no-binding floor
Parent: JUN, bZIP domain (human); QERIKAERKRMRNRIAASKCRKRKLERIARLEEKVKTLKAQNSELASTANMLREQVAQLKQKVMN; partner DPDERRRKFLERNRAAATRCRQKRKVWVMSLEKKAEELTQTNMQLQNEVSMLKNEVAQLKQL
| Substitution | binding fitness [natural log] |
| --- | --- |
| V56G | -1.28 |
| K39R | -0.221 |
| L52A | -1.36 |
| V56F | -1.08 |
| A46L | -0.252 |
| A29G | -0.476 |
| Q58S | -0.18 |
| A29E | -0.33 |
| L38T | -1.34 |
| T48K | -0.295 |
| M51D | -0.122 |
| E44A | -0.355 |
| I28H | -0.401 |
| E54N | -0.431 |
| K39H | -0.329 |
| I28E | -0.381 |
| K34D | -0.663 |

Series 2 — target: OGT, full length, His-tagged (human); method: phage display, sequencing; sample: in vitro; concentration: 1 µg OGT; relative to: input library; reading: higher = stronger binding; parent: peptide; GDFPVMFMPKYSIIY
Setting: single substitutions, 15-mer displayed peptide, unchanged parent 5.27
| Substitution | fold enrichment |
| --- | --- |
| K10M | 3.2 fold |
| I13A | 0.636 fold |
| Y11R | 0.895 fold |
| G1E | 6.62 fold |
| S12K | 7.15 fold |
| S12W | 6 fold |
| G1R | 4.18 fold |
| Y15W | 4.03 fold |
| Y11K | 2.23 fold |
| Y15R | 0.993 fold |
| M8Q | 0.747 fold |
| V5H | 4.45 fold |
| K10T | 1.16 fold |
| D2H | 6.65 fold |
| P4T | 3.05 fold |
| F3R | 2.63 fold |
| K10R | 1.47 fold |
| F7H | 1.02 fold |
| P9Q | 3.81 fold |
| P4S | 8.01 fold |
| F7K | 0.913 fold |
| P9K | 1.79 fold |
| M6T | 3.3 fold |
| V5D | 4.83 fold |
| Y11N | 0.784 fold |

Series 3 — method: universal PBM; molecule type: double-stranded DNA, one strand shown; sample: in vitro; concentration: 600 nM; reading: higher = stronger binding
Target: Sal-like protein 4, full length isoform A (SALL4, Homo sapiens, UniProt Q9UJQ4, residues 1-1053)
Sequence of UniProt Q9UJQ4 (whole entry, looked up): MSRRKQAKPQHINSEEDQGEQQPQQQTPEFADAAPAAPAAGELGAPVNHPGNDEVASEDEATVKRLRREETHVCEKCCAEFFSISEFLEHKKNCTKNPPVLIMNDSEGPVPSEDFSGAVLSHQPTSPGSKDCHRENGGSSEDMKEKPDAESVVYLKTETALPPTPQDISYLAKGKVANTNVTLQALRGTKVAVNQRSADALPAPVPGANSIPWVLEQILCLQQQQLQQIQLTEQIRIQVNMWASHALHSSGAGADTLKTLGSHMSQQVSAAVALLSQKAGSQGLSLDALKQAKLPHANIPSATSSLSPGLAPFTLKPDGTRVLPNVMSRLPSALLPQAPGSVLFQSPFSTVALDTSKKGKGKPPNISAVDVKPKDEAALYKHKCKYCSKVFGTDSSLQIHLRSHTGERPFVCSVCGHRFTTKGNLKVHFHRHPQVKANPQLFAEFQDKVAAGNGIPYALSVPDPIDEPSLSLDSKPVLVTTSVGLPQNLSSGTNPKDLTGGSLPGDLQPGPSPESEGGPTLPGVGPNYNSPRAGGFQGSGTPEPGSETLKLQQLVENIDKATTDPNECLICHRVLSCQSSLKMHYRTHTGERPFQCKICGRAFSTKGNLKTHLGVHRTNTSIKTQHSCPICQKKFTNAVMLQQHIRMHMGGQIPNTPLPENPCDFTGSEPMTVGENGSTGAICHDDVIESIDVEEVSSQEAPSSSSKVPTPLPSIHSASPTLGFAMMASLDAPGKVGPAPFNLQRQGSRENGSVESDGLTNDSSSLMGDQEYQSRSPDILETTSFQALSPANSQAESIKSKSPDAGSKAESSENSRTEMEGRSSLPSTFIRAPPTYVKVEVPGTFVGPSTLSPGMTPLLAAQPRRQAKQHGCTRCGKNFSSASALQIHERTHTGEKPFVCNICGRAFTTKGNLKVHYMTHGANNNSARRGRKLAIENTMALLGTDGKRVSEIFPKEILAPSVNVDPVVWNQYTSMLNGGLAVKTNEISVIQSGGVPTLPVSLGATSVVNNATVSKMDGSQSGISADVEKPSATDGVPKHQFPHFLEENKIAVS
Setting: 8-mer, flanks averaged, mean of replicates
| Oligonucleotide | E-score |
| --- | --- |
| GGCTAAAC | -0.128 |
| TAGTTGCA | 0.0681 |
| AAATCTCC | -0.191 |
| ACCTGGCT | -0.247 |
| GTATTGAC | 0.0176 |
| GCCTACCA | -0.0948 |
| TCTTCGAA | -0.025 |
| GCAATGTA | 0.128 |
| AAGATTAG | 0.191 |
| GCTTTTCC | 0.0215 |
| GTGGCAAA | -0.0479 |
| GACATGTC | 0.0564 |
| CTAAGGAG | -0.238 |
| ATGCGGTG | -0.315 |
| GCTGGTAC | -0.28 |
| AACATTGG | 0.00306 |
| AAGCATCG | -0.00424 |
| GACAAAAC | 0.0585 |
| AGTTCATC | 0.0301 |
| CCTTATCA | 0.165 |
| AATGACGC | -0.0274 |
| GCCGCCCC | -0.418 |
| TCAACTAA | 0.2 |
| ATAACTGC | 0.296 |

Series 4 — method: RNA Bind-n-Seq; molecule type: RNA; sample: in vitro; concentration: 365 nM; relative to: no-protein control; reading: higher = stronger binding
Target: RNA binding protein fox-1 homolog 2, RRM domain, GST-SBP tag (RBFOX2, Homo sapiens, UniProt O43251-10, residues 100-194)
Setting: natural RNA segment, single round, ends assumed
Residues (chain): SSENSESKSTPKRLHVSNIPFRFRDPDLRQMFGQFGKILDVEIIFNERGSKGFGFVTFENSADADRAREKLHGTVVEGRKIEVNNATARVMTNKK
| Oligonucleotide | RBNS enrichment (R) |
| --- | --- |
| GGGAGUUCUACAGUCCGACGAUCGCCACAUACCCUCAUCUGUGCUGUCAGUGUGUCUCUGGUGGGGCAGACUUUGCACUUACUGCAGUGCACCACUUGCACUUUACUCCCUCCGGCUUCUGAGACAGAGCAAGUGGAAUUCUCGGGUGCCAA | 0.552 |
| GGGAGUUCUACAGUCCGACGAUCUCAGUUGCUUUUGUCGAACAUCAGCAUCAUGUUUUAAAUGUUGUGGUCCUGGAUGCCCAGCUGGGCUACCCAGGUGCCAGCAUGUUUGCAUGGGAGGAAAGGCUCCACUUUGGAAUUCUCGGGUGCCAA | 1.79 |
| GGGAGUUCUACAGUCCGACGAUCAGGCAGGACCUCUGAGCGAUGUAGGUUUUUUUAUUUUUAAGUUGUAUUUCUUUUCUCCCUGCUCUUGAGUGUCCUUGUCCUGCCCUCCCAUUCCAGCCGUGAUGAGCAUUUGGAAUUCUCGGGUGCCAA | 0.987 |
| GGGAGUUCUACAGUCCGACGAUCAAAACAUUUGAAAGCAUGUUGUGCAUGUGUGAGAGAGUGGCGUGGCUGGUCUCAGGCUGACACUCGAAGGGUAGUAGAAAUAUCCCUUCUGGCCUAUUGUCUGCUUCGCUUGGAAUUCUCGGGUGCCAA | 24.2 |
| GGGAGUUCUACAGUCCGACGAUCGGACCCAAGAGAGGAAAAGUUGUAGCUAAAUGUUGAUUUACUUAUAACUAGACGUCUAUGUGAGAAAAUAUAUGUAUACAUAUAUAUGAUAUGCAGAAGUCACUUUUUUUUGGAAUUCUCGGGUGCCAA | 0.314 |
| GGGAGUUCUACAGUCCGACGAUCGGCUUCGGGUGGUGCUAUAAUGUGGCACUGGAUCUUGAGUAAUAAAUUUGCUGUGGUUUGUACACGGUGUUGUCUGUAGCCUGCAAAGGAGAGGCUAGGUUACUGGGUACUGGAAUUCUCGGGUGCCAA | 0.736 |
| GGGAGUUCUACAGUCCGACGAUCACACAACCUUAUUUUUCUUUACAAAAGCAAAAAAGGAAACCAAAAAAGAUACAGCCUUUGAAUGAUGCCUGCUGGCUGUCUGUAUUCGUUUGCUUGGGCAGCUCGGGCCUUGGAAUUCUCGGGUGCCAA | 20.8 |
| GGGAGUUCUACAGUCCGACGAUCGCACAUUUUCUUUUGUGCUUUUAAAUGUUUCUUAAGUUGGAACAGGUUUCCUCGGGCCUGUUUUGACUGAUUGCUGGAGUGCAUUUGAUAGUUAAAAAUUACUAAUUGGUUGGAAUUCUCGGGUGCCAA | 2.61 |
| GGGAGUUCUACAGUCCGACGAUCGGGCACUGGGCUUGUUGGGGCCAGAAAUGUCCACGUCCUGAGCUUUCUCCUGGAGCAUGUGCAGAGAGUUUGGCAACGUUCGCUCUCUUGACCAGACCCCUUCUCCCUGAUGGAAUUCUCGGGUGCCAA | 4.98 |
| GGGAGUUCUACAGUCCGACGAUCGUACUCUGGAACCAUGCCAUCACUGAUGUCAUGCUCAUGCUACCUAGCAUGCAGGAGGAUGCCAUCUGUUUCUUUGAGCCUUGUUAGAGAAGGUAAUGCUAGAGGAAGACUGGAAUUCUCGGGUGCCAA | 0.981 |
| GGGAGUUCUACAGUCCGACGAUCACAUAGCUGGUUAACCUUGAAGUGACUGUUGUACCAUGGUUGUGCACAUGCUUCAGAAUCCUAUGGAAGAGAAUAUUCCUACUUGCAGUACAUCAAAGGAAUGGAUGGUGUGGAAUUCUCGGGUGCCAA | 1.03 |
| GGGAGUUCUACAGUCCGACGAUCACAAACCACCUCUACAUAUUAUGGAAAGAAAAUAUUUUUGUCGAUUCUUAUUCUUUUAUAAUUAUGCGUGGAAGAAGUAGACACAUUAAACGAUUCCAGUUGGAAACAUGUGGAAUUCUCGGGUGCCAA | 0.482 |

Series 5 — target: CCNB3, cyclin fold, Cln2 fusion (human); method: yeast growth competition, sequencing; sample: yeast; setting: strong parent motif; relative to: not given; reading: higher = stronger binding
Parent: PKN2 docking peptide (human); VSAVRKLDFSDTM; partner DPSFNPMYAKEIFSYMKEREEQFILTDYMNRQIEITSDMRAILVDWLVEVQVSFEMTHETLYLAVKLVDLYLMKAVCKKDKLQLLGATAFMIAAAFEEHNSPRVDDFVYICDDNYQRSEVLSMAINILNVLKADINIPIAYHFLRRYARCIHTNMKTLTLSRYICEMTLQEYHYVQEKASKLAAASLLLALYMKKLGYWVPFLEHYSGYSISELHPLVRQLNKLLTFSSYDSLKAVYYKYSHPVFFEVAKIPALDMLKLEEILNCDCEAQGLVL
| Substitution | normalised enrichment score |
| --- | --- |
| V4F | 1.03 |
| D11I | 2.05 |
| D11F | 1.27 |
| T12V | 0.993 |
| D11N | 1.9 |
| D11P | 1.62 |
| K6Y | 0.151 |
| K6H | 0.415 |
| D11Y | 1.3 |
| D11L | 2.04 |
| S2N | 1.74 |
| R5Y | 0.0809 |
| V4Y | 0.242 |
| T12I | 1.71 |
| L7R | -0.138 |
| V4E | -0.103 |
| D11S | 2.07 |
| A3L | 0.9 |
| S10C | 1.11 |
| D11T | 1.69 |
| L7I | 0.699 |
| T12A | 2.1 |

Series 6 — method: DHFR PCA, deep sequencing; sample: yeast; together with: (+)-ABA 710 µM; relative to: wild-type fitted maximum; reading: higher = stronger binding
Target: ABI1, truncated, D143A, DHFR fusion (Arabidopsis thaliana)
Setting: methotrexate growth selection, single substitutions
Parent: PYL1, truncated, DHFR fusion (Arabidopsis thaliana); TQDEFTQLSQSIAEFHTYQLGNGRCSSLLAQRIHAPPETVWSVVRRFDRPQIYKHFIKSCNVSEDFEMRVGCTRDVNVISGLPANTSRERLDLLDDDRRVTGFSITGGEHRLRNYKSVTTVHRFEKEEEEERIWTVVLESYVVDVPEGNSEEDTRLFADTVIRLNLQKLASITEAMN; partner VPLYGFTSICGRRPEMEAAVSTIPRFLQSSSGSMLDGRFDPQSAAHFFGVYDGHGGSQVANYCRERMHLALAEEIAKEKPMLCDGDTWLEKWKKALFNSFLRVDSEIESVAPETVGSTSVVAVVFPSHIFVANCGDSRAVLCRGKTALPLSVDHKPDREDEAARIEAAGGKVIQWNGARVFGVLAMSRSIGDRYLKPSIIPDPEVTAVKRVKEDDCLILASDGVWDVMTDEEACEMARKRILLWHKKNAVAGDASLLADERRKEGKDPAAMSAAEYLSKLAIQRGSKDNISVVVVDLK
| Substitution | relative binding score |
| --- | --- |
| A30C | 101% |
| F15I | 88.7% |
| T135L | 3.6% |
| I33V | 102% |
| Q19W | 92.2% |
| G81S | 87.8% |
| S87I | 48.2% |
| Y53P | 19.5% |
| S117C | 78.8% |
| F66T | 100% |
| E38D | 99.2% |
| D65E | 104% |
| L156N | 97.7% |
| K168L | 80.3% |
| S11H | 94% |
| R123H | 101% |

A few entries again (series 5):
| Substitution | normalised enrichment score |
| --- | --- |
| L7I | 0.699 |
| V4E | -0.103 |
| V4F | 1.03 |
| D11L | 2.04 |
| D11Y | 1.3 |
| D11P | 1.62 |
